Published values from different studies.
Lines come from different studies, so protocols differ. Numbers after ± are the reported error.

With `COC1C=COC2(C)Oc3c(C)c(O)c4c(c3C2=O)C2=NC3(CCN(CC(C)C)CC3)NC2=C(NC(=O)C(C)=CC=CC(C)C(O)C(C)C(O)C(C)C(OC(=O)Nc2cccnn2)C1C)C4=O` (centres unmarked) the elimination half-life was 2.5 h (CD-1 mouse female, plasma; intravenous, 5 mg/kg).
The micronucleus rate of `O=C1NC2(CC2)COc2ncc(F)cc2[C@H]2COCCN2c2ccn3ncc1c3n2` is reported as 1.05 ± 0.57 ‰ (bone marrow micronucleus test; NIH mice, male; oral, 60 mg/kg/day, 3 days).
Under “severe adverse events”, `CC[C@H](C)[C@@H]1NC(=O)[C@H](Cc2ccc(O)cc2)NC(=O)CCCSC[C@@H](C(=O)N(CC(=O)N[C@@H](CC(C)C)C(=O)NCC(N)=O)Cc2ccc(F)cc2)NC(=O)[C@H](CC(N)=O)NC(=O)[C@H](CCC(N)=O)NC1=O` is recorded as 0% (human; intranasal, 200 µg single dose).
The half-life of `C=C(NC(=O)c1csc(-c2nc3c(cc2O)-c2nc(cs2)C(=O)NC(C(C)O)C(=O)NC(=C(C)OC)c2nc(cs2)C(=O)NC2c4nc(cs4)C(=O)NC(COC(=O)c4c5c6c(cccc6n4O)COC(=O)C(OC4CC(C)(O)C(N(C)C)C(C)O4)C2OC5)c2nc-3cs2)n1)C(N)=O` (centres unmarked) is reported as 6.31 h (ICR mice, Streptococcus pneumoniae ATCC 49169 infected, immunocompromised, blood; intravenous, 16 mg/kg/day once daily).
For `O=C([O-])CN1CCN(CC(=O)[O-])CCN(Cc2cccc(C(=O)[O-])n2)CC1.[18F-].[Sc+3]`, the tracer uptake was 0.64 %ID/g (mouse, blood; intravenous, 1 h).
The MRT(0-inf) of `COc1ccccc1/C=C/CNCC(O)COc1ccc(Nc2ccccc2)cc1` (racemic) is reported as 8.24 h (mouse, plasma; intraperitoneal, 10 mg/kg).
For `CC(=O)N([O-])CCCCCNC(=O)CCC(=O)N([O-])CCCCCNC(=O)CCC(=O)N([O-])CCCCCN.[89Zr+4]`, the intact complex was 97.1 ± 1.3% (radio-TLC; aqueous buffer; 1 d, pH 7.2, 37 °C, 89Zr-labelled complex, added: CoCl2 10-fold excess).
With `C/C(N)=N/C(=N\S(=O)(=O)c1ccc(C(F)(F)F)cc1)N1C[C@H](c2ccccc2)C(c2ccc(Cl)cc2)=N1` the Cmax was 30800 ng/mL (C57BL/6 mouse, kidney; intravenous, 10 mg/kg).
For `O=C(Nc1cnccc1-c1ccc([18F])nc1)c1ccnc(NC(=O)C2CC2)c1`, the mean SUV was 0.024 (ex vivo gamma counting; FVB/NJ mice, both sexes, brain stem; intravenous, 120 min).
`CN(Cc1ccccc1)C(=O)CN1CCN(CC(=O)[O-])CCN(Cc2cccc(C(=O)[O-])n2)CC1.[177Lu+3]` gave a tracer uptake of 0.33 %ID/g (mouse, spleen; intravenous, 1 h).
For `CN([O-])C(=O)CN1CCN(CC(=O)N(C)[O-])CCN(CC(=O)N(C)[O-])CC1.[89Zr+4]`, the intact complex was 100% (radio-TLC; human serum; 3 days, run 2).
